Experimental data pooled from the literature.
Values joined by “and” are separate records of one study, mostly repeats; a detail may differ. ± gives the spread as reported.
rep main protease: Replicase polyprotein 1ab, main protease (rep, Severe acute respiratory syndrome coronavirus 2, UniProt P0DTD1)
rep papain-like protease: Replicase polyprotein 1ab, papain-like protease (rep, Severe acute respiratory syndrome coronavirus 2, UniProt P0DTD1)
OPRM1: Mu-type opioid receptor (OPRM1, Homo sapiens, UniProt P35372)
UniProt P35372, sequence (whole entry, looked up): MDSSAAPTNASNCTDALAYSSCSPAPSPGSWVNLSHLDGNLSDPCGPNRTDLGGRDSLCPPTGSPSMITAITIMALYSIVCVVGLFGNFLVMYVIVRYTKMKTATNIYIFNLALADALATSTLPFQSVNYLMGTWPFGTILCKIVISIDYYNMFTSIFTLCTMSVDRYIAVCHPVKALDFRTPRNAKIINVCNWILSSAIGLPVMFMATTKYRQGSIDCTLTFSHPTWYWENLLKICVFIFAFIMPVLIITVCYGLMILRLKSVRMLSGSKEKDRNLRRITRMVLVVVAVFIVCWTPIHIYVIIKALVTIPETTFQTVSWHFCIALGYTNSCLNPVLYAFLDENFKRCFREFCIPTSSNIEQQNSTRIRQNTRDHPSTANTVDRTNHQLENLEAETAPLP

For COc1cc(Oc2c(O)cc(C)cc2OC)c(C(=O)O)c(C)c1O, the IC50 was 5200 nM (rep main protease; enzyme activity, inhibitor, FRET).
For N#Cc1cn([C@@H]2O[C@H](CSCC[C@H](N)C(=O)O)[C@@H](O)[C@H]2O)c2ncnc(N)c12, the IC50 was 1200 ± 400 nM (Replicase polyprotein 1ab, nsp16 with nsp10 (rep, Severe acute respiratory syndrome coronavirus 2, UniProt P0DTD1); nsp10–nsp16 methyltransferase activity, inhibitor, radiometric; SARS-CoV-2; added: 1.7 µM 3H-SAM, 0.8 µM biotinylated RNA).
With CCCCCCCCCCCCCCCC(=O)N[C@@H](CCC(=O)NCCOCCOCCC(=O)NCCOCCOCCC(=O)NCCCC[C@H](NC(=O)[C@H](CC(=O)O)NC(=O)[C@H](CC(C)C)NC(=O)[C@H](Cc1ccc(O)cc1)NC(=O)[C@H](CCCCN)NC(=O)[C@H](CO)NC(=O)[C@H](Cc1ccc(O)cc1)NC(=O)[C@H](CC(=O)O)NC(=O)[C@H](CO)NC(=O)[C@@H](NC(=O)[C@H](Cc1ccccc1)NC(=O)[C@@H](NC(=O)CNC(=O)[C@H](CCC(N)=O)NC(=O)[C@@H](CO)NC(=O)[C@@H](N)Cc1c[nH]cn1)[C@@H](C)O)[C@@H](C)O)C(=O)N[C@@H](CCCNC(=N)N)C(=O)N[C@@H](CCCNC(=N)N)C(=O)N[C@@H](C)C(=O)N[C@@H](CCC(N)=O)C(=O)N[C@@H](CC(=O)O)C(=O)N[C@@H](Cc1ccccc1)C(=O)N[C@H](C(=O)N[C@@H](CCC(N)=O)C(=O)N[C@@H](Cc1c[nH]c2ccccc12)C(=O)N[C@@H](CC(C)C)C(=O)N[C@@H](CC(C)C)C(=O)N[C@@H](CC(N)=O)C(=O)N[C@H](C(=O)NCC(=O)NCC(=O)N1CCC[C@H]1C(=O)N[C@@H](CO)C(=O)N[C@@H](CO)C(=O)NCC(=O)N[C@@H](C)C(=O)N1CCC[C@H]1C(=O)N1CCC[C@H]1C(=O)N1CCC[C@H]1C(=O)N[C@@H](CO)C(N)=O)[C@@H](C)O)C(C)C)C(=O)O the creatinine was 23.4 ± 1.8 µmol/L (Sprague-Dawley rat, male; subcutaneous, 100 µg/kg once daily, 14 days).
CCN(CC)S(=O)(=O)c1ccc2nnn(OCc3cc(-c4ccccc4OC)no3)c2c1 gave an IC50 of greater than 100000 nM (rep main protease; enzyme activity, inhibitor).
The IC50 of CC(=O)OCC1Cc2c(-c3cc(N(C)C)ccn3)cccc2-c2c(O)ccc(-c3ccc(Br)cc3)c21 (stereo not drawn) is reported as 10000 nM (rep main protease; enzyme activity, inhibitor).
Cc1ccc(OCCN(C)C)cc1C(=O)N[C@H](C)c1cc(-c2cnn(C)c2)cc(-c2cnn(C3CC3)c2)c1 has an IC50 of 103 nM (rep papain-like protease; enzyme activity, inhibitor, FRET).
The IC50 of O=C(c1cccc(Br)c1)N1CCC(c2ccn3ncc(C(=O)N4CCCCC4)c3c2)CC1 is reported as 75200 ± 10600 nM (Replicase polyprotein 1ab, nsp3 macrodomain (rep, Severe acute respiratory syndrome coronavirus 2, UniProt P0DTD1); ADP-ribose binding, inhibitor, fluorescence polarization; Mac1 domain, SARS-CoV-2).
CC(C)=CCc1c(O)cc(O)c2c(=O)cc(-c3ccc(O)cc3)oc12 has an IC50 of 24000 nM (Replicase polyprotein 1ab, nsp13 helicase (rep, Severe acute respiratory syndrome coronavirus 2, UniProt P0DTD1); ATPase activity; no nucleic acid).
CC(C)C[C@H](NC(=O)[C@H](CCCN)NC(=O)[C@@H](NC(=O)[C@@H](N)CCC(N)=O)C(C)C)C(=O)N[C@H](/C=C/S(=O)(=O)c1ccc(O)cc1)C[C@@H]1CCNC1=O has an IC50 of 484 ± 21.2 nM (rep main protease; enzyme activity, inhibitor; 37 °C, 1 h preincubation).
For N#C[C@H](C[C@@H]1CCNC1=O)NC(=O)[C@@H]1[C@H]2CCC[C@H]2CN1C(=O)[C@@H](NC(=O)c1ccon1)C1CCCCC1, the IC50 was 135 nM (rep main protease; enzyme activity, inhibitor, fluorescence).
The IC50 of N#Cc1ccccc1C[C@@H](N)C(=O)N[C@H](Cc1ccc(Cl)cc1Cl)C(=O)N[C@H](CC(=O)NC(N)=O)Cc1ccc(F)cc1 is reported as 1800 nM (rep main protease; enzyme activity, inhibitor, fluorescence).
For O=C(NCCc1cccc(F)c1)C(c1cccnc1)N(C(=O)C(F)Cl)c1ccc(S(F)(F)(F)(F)F)cc1 (single isomer, unassigned), the IC50 was 900 nM (rep main protease; enzyme activity, inhibitor).
The IC50 of Nc1nnc(SC2CC(=O)N(c3cccc4ccccc34)C2=O)s1 (stereo not drawn) is reported as 640 ± 80 nM (rep main protease; enzyme activity, inhibitor; 60 min preincubation).
CC(C)C[C@H](NC(=O)[C@H](CO[C@@H]1O[C@H](CO)[C@@H](O)[C@H](O)[C@H]1O)NC(=O)[C@H](CCCCN)NC(=O)[C@H](CC(C)C)NC(=O)CNC(=O)[C@H](CCCCN)NC(=O)[C@H](CCC(=O)O)NC(=O)CNC(=O)[C@H](CC(C)C)NC(=O)[C@H](CC(N)=O)NC(=O)[C@@H]1CCCN1C(=O)[C@H](CC(C)C)NC(=O)[C@H](Cc1ccccc1)NC(=O)CNC(=O)[C@H](NC(=O)[C@@H](N)Cc1ccc(O)cc1)[C@H](C)O)C(N)=O gave a Ki of 3.5 ± 0.55 nM (OPRM1; radioligand displacement; CHO membranes; 60 min, pH 7.5, 25 °C, added: 0.25 nM [3H]DAMGO).
The IC50 of COC(=O)C[C@H](NC(=O)c1ccccc1[Se][Se]c1ccccc1C(=O)N[C@@H](CC(=O)OC)C(=O)OC)C(=O)OC is reported as 1920 nM (rep main protease; enzyme activity, inhibitor).
Brc1c(Br)c(Br)c2[nH]nnc2c1Br gave an IC50 of < 10000 nM and 9900 nM (Replicase polyprotein 1ab, methyltransferase (rep, Severe acute respiratory syndrome coronavirus 2, UniProt P0DTD1); enzyme activity, inhibitor; pH 7.5).
The Ki of CC(C)C[C@H](NC(=O)[C@H](CO)NC(=O)[C@H](CCCCN)NC(=O)[C@H](CC(C)C)NC(=O)C(C)(C)NC(=O)[C@H](CCCCN)NC(=O)[C@H](CCC(=O)O)NC(=O)[C@H](C)NC(=O)[C@H](CC(C)C)NC(=O)[C@H](CC(N)=O)NC(=O)[C@@H]1CCCN1C(=O)[C@H](CC(C)C)NC(=O)[C@H](Cc1ccccc1)NC(=O)CNC(=O)[C@H](NC(=O)[C@@H](N)Cc1ccc(O)cc1)[C@H](C)O)C(N)=O is reported as 29 ± 0.67 nM (OPRM1; radioligand displacement; CHO membranes; 60 min, pH 7.5, 25 °C, added: 0.25 nM [3H]DAMGO).
The IC50 of CCC(C(=O)Nn1cccc1)n1c(SCc2ccc(F)cc2)nc2ncccc21 (stereo not drawn) is reported as 7090 nM (rep papain-like protease; enzyme activity, inhibitor).

Excerpt of the above:
CCN(CC)S(=O)(=O)c1ccc2nnn(OCc3cc(-c4ccccc4OC)no3)c2c1 gave an IC50 of greater than 100000 nM (rep main protease; enzyme activity, inhibitor).
The IC50 of CC(=O)OCC1Cc2c(-c3cc(N(C)C)ccn3)cccc2-c2c(O)ccc(-c3ccc(Br)cc3)c21 (stereo not drawn) is reported as 10000 nM (rep main protease; enzyme activity, inhibitor).
Cc1ccc(OCCN(C)C)cc1C(=O)N[C@H](C)c1cc(-c2cnn(C)c2)cc(-c2cnn(C3CC3)c2)c1 has an IC50 of 103 nM (rep papain-like protease; enzyme activity, inhibitor, FRET).
